Results collected from several papers.
AMY2: Pancreatic alpha-amylase (AMY2, Sus scrofa, UniProt P00690)
rep main protease: Replicase polyprotein 1ab, main protease (rep, Porcine epidemic diarrhea virus, UniProt P0C6Y4)
NT5E: 5'-nucleotidase (NT5E, Homo sapiens, UniProt P21589)
MAPK3: Mitogen-activated protein kinase 3 (MAPK3, Homo sapiens, UniProt P27361)
CDK7 with cyclin H: Cyclin-dependent kinase 7, with cyclin H (CDK7, Homo sapiens, UniProt P50613)
SLC6A2: Sodium-dependent noradrenaline transporter (SLC6A2, Homo sapiens, UniProt P23975)
PIP4K2C: Phosphatidylinositol 5-phosphate 4-kinase type-2 gamma (PIP4K2C, Homo sapiens, UniProt Q8TBX8)
CA9: Carbonic anhydrase 9 (CA9, Homo sapiens, UniProt Q16790)

With `CCCN(O)N=Nc1ccc(S(=O)(=O)Nc2nccs2)cc1` the inhibition was 42.1% (AMY2; enzyme activity, inhibitor; 180 µg/mL).
With `COc1cc(CNC(=O)c2cccc(C(F)(F)F)c2)cc(Br)c1OC` the inhibition was 0.74% (rep main protease; enzyme activity, inhibitor, FRET; 10 µM).
With `Cc1cc(-c2ccccc2)nc(SCC(=O)Nc2cccnc2)c1C#N` the inhibition was 35% (NT5E; enzyme activity, inhibitor; 10 µM).
`C1=C/COCc2cc(ccc2OCCN2CCCC2)Nc2nccc(n2)-c2cccc(c2)COC/1` gave a remaining binding of 100% (PAK3 (Homo sapiens, UniProt O75914); binding; 0.1 µM).
`Cc1cc(-c2ccccc2)c2c(N)c(C(=O)Nc3ccon3)sc2n1` gave an inhibition of 51% (NT5E; enzyme activity, inhibitor; 10 µM).
`COc1cc(CNC(=O)c2ccc(Br)cc2)cc(Br)c1OC` gave an inhibition of 64.3% (rep main protease; enzyme activity, inhibitor, FRET; 10 µM).
`CCN(O)N=Nc1ccc(S(=O)(=O)Nc2onc(C)c2C)cc1` gave an inhibition of 10.5% (AMY2; enzyme activity, inhibitor; 20 µg/mL).
`COc1cc(CNC(=O)c2ccccc2SC)cc(Br)c1OC` gave an inhibition of 19.9% (rep main protease; enzyme activity, inhibitor, FRET; 10 µM).
For `O=C(Nc1ccc(Oc2nnc(-c3ccc(Cl)cc3)c3ccccc23)cc1)c1ccccc1`, the cell death was 96.6% (HepG2; cell growth or viability, MTT; 2.5 µM).
With `COc1cc(-c2cncc3c2CN(C)Cc2cc(N4CCNCC4)ccc2-3)cc(OC)c1OC` the remaining activity was 92% (EPHB2 (Homo sapiens, UniProt P29323); enzyme activity, inhibitor; 1 µM).
`CC[C@H](C)[C@H](NC(=O)[C@H](CCC(N)=O)NC(=O)[C@@H](NC(=O)[C@H](CCSC)NC(=O)[C@H](CCCCN)NC(=O)[C@H](CO)NC(=O)[C@@H](NC(=O)[C@H](CCSC)NC(=O)[C@H](CC(C)C)NC(=O)[C@H](CC(N)=O)NC(=O)[C@@H](NC(=O)[C@@H](NC(=O)[C@H](CO)NC(=O)[C@H](CC(C)C)NC(=O)[C@H](C)NC(=O)[C@H](CCCNC(=N)N)NC(=O)[C@H](CCC(=O)O)NC(=O)[C@H](Cc1ccc(O)cc1)NC(=O)[C@H](Cc1ccccc1)NC(=O)[C@H](C)NC(=O)[C@H](CC(N)=O)NC(=O)[C@@H](N)CCCCN)[C@@H](C)CC)[C@@H](C)CC)[C@@H](C)O)C(C)C)C(=O)N[C@@H](CC(N)=O)C(=O)N[C@H](C(=O)O)C(C)C` gave an inhibition of 2% (MAPK3; enzyme activity, inhibitor, radiometric; 50 µM).
With `CNc1ncc2c(/C=C/C(=O)N3CCC(OC)CC3)nn(Cc3cccc(C(F)(F)F)c3)c2n1` the remaining activity was 98% (CSK (Homo sapiens, UniProt P41240); enzyme activity, inhibitor, radiometric; 1 µM).
The inhibition of `Cc1ccccc1C(=O)NCc1cc(O)c(O)c(Br)c1` is reported as 90.2% (rep main protease; enzyme activity, inhibitor, FRET; 10 µM).
For `CCOC(=O)c1ccc(NC(=O)CSc2nc(C)cc(C)c2C#N)cc1`, the inhibition was 0% (NT5E; enzyme activity, inhibitor; 10 µM).
With `O=C(Nc1ccccc1)c1ccccc1` the inhibition was < 5% (MAOB (Homo sapiens, UniProt P27338); enzyme activity, inhibitor; 1 µM).
`Cc1ccc(N(O)N=Nc2ccc(S(=O)(=O)Nc3onc(C)c3C)cc2)cc1` has an inhibition of 31.6% (AMY2; enzyme activity, inhibitor; 120 µg/mL).
The inhibition of `Cc1cccc(NC(=O)CSc2nc(-c3ccccc3)cc(C)c2C#N)n1` is reported as 58% (NT5E; enzyme activity, inhibitor; 10 µM).
For `CN1CC(Oc2cnc(C#N)cc2-c2ccn3nc(NC(=O)C4CC4)cc3c2)C1`, the inhibition was 11% (CAMK4 (Homo sapiens, UniProt Q16566); enzyme activity, inhibitor; 1 µM).
For `O=C(NCc1cc(O)c(O)c(Br)c1)c1ccc(Cl)nc1`, the inhibition was 7.12% (Replicase polyprotein 1ab, papain-like protease (rep, Porcine epidemic diarrhea virus, UniProt P0C6Y4); enzyme activity, inhibitor, FRET; 10 µM).
`CC1(C)[C@@H](O)CC[C@]2(C)[C@H]3C(=O)C=C4[C@@H]5C[C@@](C)(C(=O)O)CC[C@]5(C)CC[C@@]4(C)[C@]3(C)CC[C@@H]12` has an inhibition of 33.1% (CDK7 with cyclin H; enzyme activity, inhibitor, ADP detection; 10 µM).
With `NC/C(=C\F)COc1cccc(Cn2c(=S)[nH]c(=O)c3[nH]cnc32)c1` the inhibition was 3.97% (AOC1 (Homo sapiens, UniProt P19801); enzyme activity, inhibitor; 0.3333 µM).
The inhibition of `CCCCCc1c2c(cc(O)c1C(=O)O)OC(=O)c1c(cc(OC)cc1C(=O)CCCC)O2` is reported as 82.7% (SLC22A11 (Homo sapiens, UniProt Q9NSA0); transporter uptake, inhibitor; 25 µM).
`Cc1cccc(N(O)N=Nc2ccc(S(=O)(=O)Nc3nccs3)cc2)c1` has an inhibition of 42.1% (AMY2; enzyme activity, inhibitor; 180 µg/mL).
With `Cn1c(C(=O)NCc2cc(O)c(O)c(Br)c2)cc2ccccc21` the inhibition was 138% (rep main protease; enzyme activity, inhibitor, FRET; 10 µM).
`CC[C@H](C)[C@H](NC(=O)[C@H](CCC(N)=O)NC(=O)[C@H](CC(C)C)NC(=O)[C@H](CCSC)NC(=O)[C@H](CCCCN)NC(=O)[C@H](CO)NC(=O)[C@H](CO)NC(=O)[C@H](CCSC)NC(=O)[C@H](CC(C)C)NC(=O)[C@H](CC(N)=O)NC(=O)[C@@H](NC(=O)[C@@H](NC(=O)[C@H](CO)NC(=O)[C@H](CC(C)C)NC(=O)[C@H](CS)NC(=O)[C@H](CCCNC(=N)N)NC(=O)[C@H](CC(=O)O)NC(=O)[C@H](Cc1c[nH]c2ccccc12)NC(=O)[C@H](Cc1ccccc1)NC(=O)[C@H](C)NC(=O)[C@H](CCC(=O)O)NC(=O)[C@@H](N)CCCCN)C(C)C)[C@@H](C)CC)C(=O)N[C@@H](CC(N)=O)C(=O)N[C@@H](C)C(=O)O` has an inhibition of 6% (MAPK3; enzyme activity, inhibitor, radiometric; 100 µM).
`O=C1C[C@@H](c2ccc(O)cc2)Oc2c(Br)c(O)c(Br)c(O)c21` has an inhibition of 52.3% (AMY2; enzyme activity, inhibitor; 50 µM, 30 min).
For `OC[C@@]12C[C@@H]1[C@@H](n1cnc3c(NC(C4CCC4)C4CCC4)nc(C#Cc4ccc(Cl)s4)nc31)[C@H](O)[C@@H]2O`, the inhibition was 44% (SLC6A2; ligand displacement, radioligand; 10 µM).
`c1cc2cc(C3=NCCN3)ccc2cc1C1=NCCN1` has an inhibition of 36.6% (Rac GTPase-activating protein 1 (Homo sapiens, UniProt Q9H0H5); enzyme activity, inhibitor, ADP detection; 20 µM).
The inhibition of `O[C@@H]1[C@H](O)[C@@H]2C[C@@H]2[C@H]1n1cnc2c(NCCC3CC3)nc(I)nc21` is reported as 46% (SLC6A2; ligand displacement, radioligand; 10 µM).
`C=CC(=O)N1CCC(COCC(=O)N2CCN(c3nc(-c4cnc(N)nc4C(F)F)nc(N4CCOC[C@@H]4C)n3)CC2)CC1` gave a remaining binding of 100% (ACVRL1 (Homo sapiens, UniProt P37023); binding, competition with immobilised ligand; 1 µM).
The remaining binding of `Cc1cc([C@@H](C)Nc2ccccc2C(=O)O)c2nc(N3CCC(F)(F)CC3)c(C#N)c(=O)n2c1` is reported as 100% (FGFR2 (Homo sapiens, UniProt P21802); binding, competition with immobilised ligand; 10 µM).
`CCCCC(=O)Nc1ccc(-c2ccc3ncn(C4CC4)c(=O)c3c2)cn1` gave an inhibition of 98.8% (PIP4K2C; binding, competition with immobilised ligand; 0.5 µM).
`N#Cc1cccc(C(=O)NCc2cc(O)c(O)c(Br)c2)c1` has an inhibition of 29.5% (rep main protease; enzyme activity, inhibitor, FRET; 10 µM).
With `O=S(=O)(Nc1nccs1)c1ccc(N=NN(O)c2ccccc2)cc1` the inhibition was 5.26% (AMY2; enzyme activity, inhibitor; 20 µg/mL).
With `CC(c1cccc(-c2ccc(-c3cn(C)nn3)cc2)c1)N(C)C(=O)c1cc(S(N)(=O)=O)ccc1O` (centres unmarked) the IC50 was 0.0219 µM (CA9; enzyme activity, inhibitor).
With `CCCCC(=O)Nc1ccc(-c2ccc3ncn(CC4CCC4)c(=O)c3c2)cn1` the inhibition was 99.6% (PIP4K2C; binding, competition with immobilised ligand; 0.5 µM).
The inhibition of `COc1cc(CNC(=O)c2sc3nc(C)cc(C(F)(F)F)c3c2N)cc(OC)c1OC` is reported as 22% (NT5E; enzyme activity, inhibitor; 10 µM).
`Cc1noc(NS(=O)(=O)c2ccc(N=NN(O)c3ccccc3)cc2)c1C` has an inhibition of 15.8% (AMY2; enzyme activity, inhibitor; 20 µg/mL).
With `Cc1cnn(-c2ccc(S(N)(=O)=O)cc2NCc2ccc(C(=O)N3CCCCC3)cc2)c1` the IC50 was 24.6 µM (CA9; enzyme activity, inhibitor).
With `CC(C)=CC[C@H]1C[C@@]23C[C@@H](CC=C(C)C)C(C)(C)[C@@](CC=C(C)C)(C(=O)C(C(=O)c4ccc(O)c(O)c4)=C2OC1(C)C)C3=O` the inhibition was 30.8% (CDK7 with cyclin H; enzyme activity, inhibitor, ADP detection; 10 µM).
`CC(=NNC(N)=S)c1ccc(Nc2nnc(-c3ccc(Cl)cc3)c3ccccc23)cc1` has a cell death of 92.4% (HepG2; cell growth or viability, MTT; 0.625 µM).

Excerpt of the above:
With `NC/C(=C\F)COc1cccc(Cn2c(=S)[nH]c(=O)c3[nH]cnc32)c1` the inhibition was 3.97% (AOC1 (Homo sapiens, UniProt P19801); enzyme activity, inhibitor; 0.3333 µM).
The inhibition of `CCCCCc1c2c(cc(O)c1C(=O)O)OC(=O)c1c(cc(OC)cc1C(=O)CCCC)O2` is reported as 82.7% (SLC22A11 (Homo sapiens, UniProt Q9NSA0); transporter uptake, inhibitor; 25 µM).
